Results of several laboratories.
Protocols differ between the studies behind these lines. Numbers after ± are the reported error.

Clc1ccc(-c2ccc(Cl)cc2Cl)cc1 has a log K(PDMS-water) of 5.2 ± 0.04 (fresh water; 20 °C, S100 sampler, 100 µm).
For CC[C@H](C)[C@H](NC(C)=O)C(=O)N[C@H]1CSSC[C@@H](C(=O)N[C@H](C(N)=O)[C@@H](C)O)NC(=O)[C@H](CCCNC(=N)N)NC(=O)[C@H](Cc2c[nH]cn2)NC(=O)[C@H](Cc2cccc3ccccc23)NC(=O)CNC(=O)[C@H](Cc2c[nH]c3ccccc23)NC(=O)[C@H](CC(=O)O)NC(=O)[C@H](CCC(N)=O)NC(=O)[C@H](Cc2c[nH]c3ccccc23)NC(=O)[C@H](C(C)C)NC1=O, “log retention factor” read 0.699 (isocratic RP-HPLC, C18; 32% acetonitrile, phosphate pH 7.4, 1% TFA; 25 °C).
With Clc1ccc(Cl)c(-c2ccccc2Cl)c1 the log K(PDMS-water) was 5.04 (fresh water; 20 °C, S30-2 sampler, 30 µm).
For CN1CC[C@]23c4c5ccc(O)c4O[C@H]2[C@@H](O)C=C[C@@]3(O)[C@H]1C5, “log k amino protonation” read 9.08 (phenolate protonated).
Under “log effective permeability”, CN1CCN(C(=O)Oc2cccc3c2[n+]([O-])c2cccc(O)c2[n+]3[O-])CC1 is recorded as -5.96 (PAMPA; artificial membrane in PBS; 50 µM, 5 h).
For CC(=O)N[C@@H](CC(N)=O)C(=O)N[C@@H](CC(N)=O)C(=O)N[C@@H](CC(C)C)C(=O)N[C@H]1CSSC[C@@H](C(=O)N[C@H](C(N)=O)[C@@H](C)O)NC(=O)[C@H](CCCNC(=N)N)NC(=O)[C@H](Cc2c[nH]cn2)NC(=O)[C@H](C)NC(=O)CNC(=O)[C@H](Cc2c[nH]c3ccccc23)NC(=O)[C@H](CC(=O)O)NC(=O)[C@H](CCC(N)=O)NC(=O)[C@H](Cc2c[nH]c3ccccc23)NC(=O)[C@H](C(C)C)NC1=O, “log retention factor” read -0.402 (isocratic RP-HPLC, C18; 32% acetonitrile, phosphate pH 7.4, 1% TFA; 25 °C).
CN1CC[C@]23c4c5ccc(O)c4O[C@H]2[C@@H](O)C=C[C@H]3[C@H]1C5 — result for “log tautomerization constant”: -0.43.
Cc1cc2c(cc1C)[n+]([O-])c1c(OC(=O)N3CCN(C)CC3)cccc1[n+]2[O-]: “log effective permeability” -4.97 (PAMPA; artificial membrane in PBS; 50 µM, 5 h).
Under “log k protonation constant”, CN1CC[C@]23c4c5ccc(O)c4O[C@H]2[C@@H](O)CC[C@@]3(O)[C@H]1C5 is recorded as 9.36 (phenolate site).
Under “log retention factor”, CC(=O)N[C@@H](CC(N)=O)C(=O)N[C@@H](CCCNC(=N)N)C(=O)N[C@@H](CC(C)C)C(=O)N[C@H]1CSSC[C@@H](C(=O)N[C@H](C(N)=O)[C@@H](C)O)NC(=O)[C@H](CCCNC(=N)N)NC(=O)[C@H](Cc2c[nH]cn2)NC(=O)[C@H](Cc2cccc3ccccc23)NC(=O)CNC(=O)[C@H](Cc2c[nH]c3ccccc23)NC(=O)[C@H](CC(=O)O)NC(=O)[C@H](CCC(N)=O)NC(=O)[C@H](Cc2c[nH]c3ccccc23)NC(=O)[C@H](C(C)C)NC1=O is recorded as 0.43 (isocratic RP-HPLC; C18 column; pH 7.4, 25 °C, elution method 2; higher = more lipophilic).
For Clc1cc(Cl)c(-c2cc(Cl)c(Cl)c(Cl)c2Cl)cc1Cl, the log K(PDMS-water) was 6.54 ± 0.1 (fresh water; 12 (unit not given), 20 °C, SSP sampler, 100 µm).
For CN1CC[C@]23c4c5ccc(O)c4O[C@H]2[C@@H](O)CC[C@H]3[C@H]1C5, “log k protonation constant” read 9.49 (phenolate site).
For CC[C@H](C)[C@H](NC(=O)[C@H](CO)NC(=O)[C@H](CCCNC(=N)N)NC(C)=O)C(=O)N[C@H]1CSSC[C@@H](C(=O)N[C@H](C(N)=O)[C@@H](C)O)NC(=O)[C@H](CCCNC(=N)N)NC(=O)[C@H](Cc2c[nH]cn2)NC(=O)[C@H](C)NC(=O)CNC(=O)[C@H](Cc2c[nH]c3ccccc23)NC(=O)[C@H](CC(=O)O)NC(=O)[C@H](CCC(N)=O)NC(=O)[C@H](Cc2cccc3ccccc23)NC(=O)[C@H](C(C)C)NC1=O, “log retention factor” read 0.068 (isocratic RP-HPLC; C18 column; pH 7.4, 25 °C, elution method 2; higher = more lipophilic).
With c1ccc2c(c1)-c1ccc3ccc4cccc5cc-2c1c3c45 the log K(PDMS-water) was 5.33 ± 0.11 (fresh water; 20 °C, SSP sampler, 100 µm).

Excerpt of the above:
Under “log k protonation constant”, CN1CC[C@]23c4c5ccc(O)c4O[C@H]2[C@@H](O)CC[C@@]3(O)[C@H]1C5 is recorded as 9.36 (phenolate site).
Under “log retention factor”, CC(=O)N[C@@H](CC(N)=O)C(=O)N[C@@H](CCCNC(=N)N)C(=O)N[C@@H](CC(C)C)C(=O)N[C@H]1CSSC[C@@H](C(=O)N[C@H](C(N)=O)[C@@H](C)O)NC(=O)[C@H](CCCNC(=N)N)NC(=O)[C@H](Cc2c[nH]cn2)NC(=O)[C@H](Cc2cccc3ccccc23)NC(=O)CNC(=O)[C@H](Cc2c[nH]c3ccccc23)NC(=O)[C@H](CC(=O)O)NC(=O)[C@H](CCC(N)=O)NC(=O)[C@H](Cc2c[nH]c3ccccc23)NC(=O)[C@H](C(C)C)NC1=O is recorded as 0.43 (isocratic RP-HPLC; C18 column; pH 7.4, 25 °C, elution method 2; higher = more lipophilic).
